Experimental data gathered from unrelated publications.
A part holds a random share of what one study measured. Several values in a cell are separate wells, animals, samples, runs or records.

Study 1 — host: human; matrix: microsomes or S9; tested at: 2 µM; time: 0.5 h
`CC(=O)COc1cc(N2C(=O)C(C)=C(C)C2=O)c(F)cc1Cl` gave a remaining compound of 3.2%.
`N[C@@H](CC(=O)N1CCCCCN1C(=O)CN1CCc2ccccc2C1)Cc1cc(F)c(F)cc1F` has a remaining compound of 11.3%.
With `COc1ccc(C(Nc2nc(C)cc(C)n2)c2c(NC(=O)c3ccco3)sc(C)c2C)c(OC)c1` (stereo not drawn) the remaining compound was 0.261%.
`COc1cc(=O)[nH]cc1C(=O)NCC(C)N1CCCCC1=O` (stereo not drawn) has a remaining compound of 90.3%.
With `COc1nc(OC)c2nno/c(=N\Cc3ccc(F)cc3)c2n1` the remaining compound was 78.7%.
With `O=[N+]([O-])c1c(Nc2cc(F)cc(Cl)c2)ccc2nonc12` the remaining compound was over 99.9%.

Study 2 — effect on: ligand displacement; tested at: 10 µM
Target: Alpha-2A adrenergic receptor (ADRA2A, Homo sapiens, UniProt P08913)
Chain of UniProt P08913 (whole entry, looked up): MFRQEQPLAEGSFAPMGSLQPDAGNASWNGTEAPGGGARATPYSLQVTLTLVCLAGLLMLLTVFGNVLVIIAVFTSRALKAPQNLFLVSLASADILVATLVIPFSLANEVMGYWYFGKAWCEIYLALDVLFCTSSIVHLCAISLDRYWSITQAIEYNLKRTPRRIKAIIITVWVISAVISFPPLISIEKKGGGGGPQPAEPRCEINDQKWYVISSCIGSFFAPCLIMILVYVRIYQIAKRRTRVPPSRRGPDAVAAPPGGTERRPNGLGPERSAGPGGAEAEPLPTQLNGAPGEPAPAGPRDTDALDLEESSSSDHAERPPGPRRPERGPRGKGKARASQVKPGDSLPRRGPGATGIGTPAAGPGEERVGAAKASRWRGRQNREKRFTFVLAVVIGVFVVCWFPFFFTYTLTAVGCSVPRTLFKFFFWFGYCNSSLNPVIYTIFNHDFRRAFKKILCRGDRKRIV
The inhibition of `NC(=O)c1ccc2nc(-c3ccc(C4(N)CCC4)cc3)c(-c3ccccc3)n2n1` is reported as 6.89%.
`CCc1ccccc1C(=O)Nc1n[nH]c2c(C)c(F)c(C3C(C#N)=C(C)N(C)C(C)=C3C#N)cc12` has an inhibition of 5.01%.
`Cn1cc(Cl)c2c(Oc3c(F)cc(Nc4cc(Cl)nc(N)n4)cc3F)ccnc21` has an inhibition of -23.9%.
With `CCC(F)(F)c1cc(N2CCC(S(C)(=O)=O)CC2)nc2sc(C(N)=O)c(N)c12` the inhibition was -12.4%.
For `C[C@H](c1ccc(F)cc1)N(Cc1cccc(C(=O)O)c1)C(=O)c1cnc2ccccc2c1`, the inhibition was -11.2%.
`CNC(=N)NCCC[C@H](NC(=O)[C@H](CC(C)C)NC(=O)NNC(=O)[C@H](Cc1ccccc1)NC(=O)[C@H](CO)NC(=O)[C@H](CC(N)=O)NC(=O)[C@@H](Cc1ccncc1)NC(=O)[C@H](N)Cc1ccc(O)cc1)C(=O)N[C@@H](Cc1ccccc1)C(N)=O` has an inhibition of 8.6%.
With `CCOc1ccc(S(=O)(=O)Nc2ccc(Cl)cc2C#Cc2cnc(C(=O)O)cc2OC)c2ncccc12` the inhibition was 26%.
`CC1CCN(c2ccnc(NCc3cn(C)cn3)n2)CC1` has an inhibition of 12.8%.
`CN1CCN(c2ccnc(NCCc3ccccc3)n2)CC1` gave an inhibition of 34.6%.
`Cc1ccccc1Oc1cc(-n2c(=O)cc(C(F)(F)F)[nH]c2=O)c2ccccc2c1Cl` gave an inhibition of -15.8%.
With `c1ccc(N2CCN(Cc3nc4ccccc4[nH]3)CC2)nc1` the inhibition was 36%.
The inhibition of `CC1=C(C#N)C(c2ccc3[nH]nc(C)c3c2)C(C#N)=C(C)N1` is reported as -3.48%.
`c1ccc(C2CCN(c3cnc4c(N5CCOCC5)nccn34)CC2)cc1` has an inhibition of 34.6%.
`C[C@@H](c1cccc(C#N)c1)n1cc(Cl)cc(C(N)=O)c1=N` has an inhibition of -1.01%.
With `C[C@@H]1CN(c2cc(-c3n[nH]c4ccc(OC5(C)CC5)cc34)ncn2)C[C@H](C)O1` the inhibition was -2.84%.
For `Cc1c(NC(=O)c2cc(C(N)=O)nc3cc(F)ccc23)c(C(F)(F)F)nn1Cc1ccc(C#N)cc1`, the inhibition was 0.0425%.
With `O=C(Nc1ccc(Oc2ccc(F)cc2)cc1)N1CCc2ncccc2[C@H]1c1ccc(F)cc1` the inhibition was 7.16%.
`COc1cc(N[C@@H]2CCCC[C@]2(O)C(F)(F)F)ccc1F` gave an inhibition of -18.7%.
`COc1cc(-c2cn(C3CCc4c(F)cccc4N(CC(F)(F)F)C3=O)nn2)ccc1-n1cnc(C)c1` (stereo not drawn) gave an inhibition of 35%.

Study 3 — technique: phase 2a clinical trial
Compound: CC(C)n1cnc(-c2ccc(F)cc2)c1-c1ncc(C(=O)Nc2ccc(N3CCN(C)CC3)cc2)[nH]1
Host: patients with idiopathic pulmonary fibrosis
refers to: benign prostatic hyperplasia; dose not given, Grade 5, maximum intensity, all drug arms total — “patients with treatment-emergent adverse events”: 0%.
It gave 0% for “patients with treatment-emergent adverse events” (refers to: drug-induced liver injury; dose not given, Grade 4, all drug arms total).
It gave 0% for “patients with treatment-emergent adverse events” (refers to: electrocardiogram high voltage; 30 mg once daily, Grade 3).
refers to: idiopathic pulmonary fibrosis; 60 mg once daily, Grade 5 — “patients with treatment-emergent adverse events”: 0%.
refers to: carbon dioxide decreased; 60 mg once daily, Grade 1 — “patients with treatment-emergent adverse events”: 0%.
refers to: metabolism and nutrition disorders (SOC); 60 mg once daily, Grade 5 — “patients with treatment-emergent adverse events”: 0%.

Study 4 — effect on: enzyme activity; mode: inhibitor; tested at: 10 µM
Target: Calcium/calmodulin-dependent protein kinase type II subunit alpha (CAMK2A, Homo sapiens, UniProt Q9UQM7)
Chain of UniProt Q9UQM7 (whole entry, looked up): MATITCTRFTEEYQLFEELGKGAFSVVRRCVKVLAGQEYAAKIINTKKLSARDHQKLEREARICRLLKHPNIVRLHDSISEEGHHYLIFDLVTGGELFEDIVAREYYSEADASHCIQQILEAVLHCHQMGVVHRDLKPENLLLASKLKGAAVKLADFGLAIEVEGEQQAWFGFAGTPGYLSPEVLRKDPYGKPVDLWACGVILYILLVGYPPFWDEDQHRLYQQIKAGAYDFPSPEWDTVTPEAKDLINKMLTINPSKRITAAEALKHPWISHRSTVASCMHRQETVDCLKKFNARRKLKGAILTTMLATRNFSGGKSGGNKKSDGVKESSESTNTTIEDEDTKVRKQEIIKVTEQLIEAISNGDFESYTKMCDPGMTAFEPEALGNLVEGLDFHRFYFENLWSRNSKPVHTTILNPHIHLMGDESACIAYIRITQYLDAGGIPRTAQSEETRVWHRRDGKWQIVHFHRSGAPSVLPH
The inhibition of `CC(C)=CCC[C@@H](C)CC=O` is reported as 2%.
`OCC1(O)COc2cc(O)ccc2-c2cc(O)c(O)cc2C1` (stereo not drawn) gave an inhibition of -4%.
For `NC(=O)[C@@H]1C[C@]2(NC(=O)NC2=O)c2cc(F)ccc2O1`, the inhibition was -8%.
With `CCC/N=C1\S/C(=C\c2ccc(OC[C@H](O)CO)c(Cl)c2)C(=O)N1c1ccccc1C` the inhibition was 4%.
For `CCOc1ccc(NC(C)=O)cc1`, the inhibition was -6%.
With `O=C(O)Cc1c[nH]c2ccc(O)cc12` the inhibition was -63%.
For `O=C(O)c1ccc2nc(-c3cc(Cl)cc(Cl)c3)oc2c1`, the inhibition was 0% and -0.03%.
`O=c1c(O)c(-c2ccc(O)c(O)c2)oc2cc(O)ccc12` has an inhibition of 68%.
